Results pooled from the literature.
Numbered parts are unrelated; each lists some results of a single study. Changes are numbered by the printed parent chain.

Set 1
Target: Sal-like protein 4, full length isoform B (SALL4, Homo sapiens, UniProt Q9UJQ4-2, residues 1-616)
Method: universal PBM
Form: double-stranded DNA, one strand shown
Medium: in vitro
Tested at: not given
Setting: 8-mer, flanks averaged, mean of replicates
Direction: higher = stronger binding
Measurement: E-score
Target sequence (chain): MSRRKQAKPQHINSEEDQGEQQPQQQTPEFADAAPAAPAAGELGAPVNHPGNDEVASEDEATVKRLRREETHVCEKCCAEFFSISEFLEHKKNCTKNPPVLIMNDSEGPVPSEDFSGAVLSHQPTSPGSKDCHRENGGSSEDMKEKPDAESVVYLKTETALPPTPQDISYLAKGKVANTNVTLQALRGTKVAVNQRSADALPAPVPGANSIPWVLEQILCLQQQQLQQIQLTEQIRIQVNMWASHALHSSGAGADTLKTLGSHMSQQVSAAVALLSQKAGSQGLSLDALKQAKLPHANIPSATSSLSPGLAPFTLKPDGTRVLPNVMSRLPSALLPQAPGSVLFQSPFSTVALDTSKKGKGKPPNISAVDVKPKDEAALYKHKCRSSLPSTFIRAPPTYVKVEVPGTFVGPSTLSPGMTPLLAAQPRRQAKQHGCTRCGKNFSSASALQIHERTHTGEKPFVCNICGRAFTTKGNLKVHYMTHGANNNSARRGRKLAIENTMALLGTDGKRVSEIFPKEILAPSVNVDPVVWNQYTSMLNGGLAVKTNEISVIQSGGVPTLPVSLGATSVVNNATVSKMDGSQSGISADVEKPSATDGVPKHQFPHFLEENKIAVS
CCAAGTAG: -0.233
TACACGAA: 0.0909
CGGTTGAG: -0.109
CACCGAAC: -0.138
TCGTAGAA: 0.0575
CGTCTCCC: -0.157
AATCCGGT: -0.194
CGAATCGA: 0.0147
ATCGCGAC: -0.0915
GTCGACAA: -0.175
CTGAAGTA: 0.0402
ACACCTAT: 0.0558
AGGGAAGA: 0.0103
ACCGGTTC: -0.308
ATGACTTC: 0.156
GCCCGGAA: -0.297
GACCTCCA: -0.208
GTGTTAAC: 0.138

Set 2
Target: RING finger protein unkempt homolog, zinc fingers 1-6, SBP tag (UNK, Homo sapiens, UniProt Q9C0B0, residues 30-357)
Chain of UniProt Q9C0B0 (30-357, looked up): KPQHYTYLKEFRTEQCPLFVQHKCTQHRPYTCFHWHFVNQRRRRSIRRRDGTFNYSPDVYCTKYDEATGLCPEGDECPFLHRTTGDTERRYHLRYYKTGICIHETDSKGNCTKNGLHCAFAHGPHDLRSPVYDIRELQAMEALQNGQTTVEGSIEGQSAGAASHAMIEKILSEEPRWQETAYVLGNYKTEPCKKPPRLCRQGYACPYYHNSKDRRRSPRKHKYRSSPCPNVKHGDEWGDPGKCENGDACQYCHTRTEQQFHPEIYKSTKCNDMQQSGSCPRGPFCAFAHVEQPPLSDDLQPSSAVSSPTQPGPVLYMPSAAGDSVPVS
Method: RNA Bind-n-Seq
Form: RNA
Medium: in vitro
Tested at: 100 nM
Setting: RNA with constant flanks, vertebrate orthologous sites, ends assumed
Baseline: input RNA pool
Direction: higher = stronger binding
Measurement: bound/input enrichment
All sequences stand within: GGGAGUUCUACAGUCCGACGAUC … CAACAGAGGAUUGAGCAUCA
CCCUCUGAACCCCAUAUCUUCCGUCUCAUAGUGCAGAAGUAGUCUUUUCAAUUAUAUUAUUCGUGGACUCGUUUUAAUUUUAGGGAAACUUUUCAGUACAGAUACUGUGAGCUUACAUGG: 3.1 ratio
AGAUUUGGACCUUGGAGCUGAACCAGGGAACUAGAAAAGUAAAACAAACUUGUAAAAUGAUAGCCAUGUGCAGCUGUACAACAGUACUAUCACUAACACCUGUGUUAAAAUAUUUAUACA: 0.66 ratio
UUUCUAAUAUUUAAUUUACUCCAUUUAAAUUUUCAUUUACUGAACUUUAGACAUCCUAAUCUGCAUUUUUGUUGAAACUGAUAUAUUGACUGUUCUCACCCAAGUCCUUUUAUAAACUGU: 0.942 ratio
UAAUUCAAUGGUUGAGGGUUCAGAACUCAAAAAGGUUCGCUCCAACUCUAGAAUUUAUCAUAGGUACUUUUUACUGGAUGCUGACAUGCAGAGCCUAAGGUGGGAGCCAUCUAAGAAGGA: 0.319 ratio
CCAUUGCACCCUGCUGUAUAAUAAAUAAUCUUAGCAUUUACCAAUUGUUGAUACAAAUGUUAGUCCCUAACCACUUUUUAUAUGUUUUAAAUUUUUGAAAUUCAAGUGUACCUGCCAUAA: 2.84 ratio
GGGGCGGCCGGUGGGGGAAUCCCAUGCCCUGGCCGGCCACCCCUCCCUGCUACCCGCUCCUAGUUUUUUUUUUUUUUAACCACCAUGUGAUUAAGGUCGGCGCUGCCUCCCCCGACCCGC: 5.88 ratio
UGUUUUGUACAGGACCUUCCUCUGUACCAGUUUGUUGUGGUUAUAAAGCAAUUAGCAAAUCAGCUUACAUUUGUAUUUAUUUUCUGUCCCAUACUUUUCUCUGCCUCAUGUUUUUUUUUU: 0.759 ratio
UAAUGUCUUUUUAUUUAUUGAAGAUCGUUUUGUGCUAAGAAUUGUGUUAGAUUUAAAAAUUAGAGGAUUAAUUCCUCUUUGUUGUGUUGAUUUCAUUGUUGAAAAUAAAUAGAACUUUGU: 0.741 ratio
GACCUAAGGGAGUUAGCAUCUUUAUUUUUAUAUCAAAGAUAAAGGUUAUUUUGAAAUUAUCAGGAUUUUUACACAACCCUGAAAUCUGUUGCUUUUGUAAACAAACUAUUUCCCCCCACC: 1.46 ratio
GAUUUGGACCUUGGAGCUGAACCAGGGAGCUAGCGAAAGUAACGCAGACUUGUAAAGUUAUAGCUAUAUGCAGCUGCACAACACAGUUCUACCACUAGCAGCUGUGUUAAAGUAUAUAAA: 0.273 ratio
UGCAUUAUUUGACCAGAGUUGAAGUGACAGAAUUUGAAGAUAUUAAAUCAGGUUACAGAAUAGAUUUUUAUUUUGAUGAAAAUCCUUACUUUGAAAAUAAAGUUCUCUCCAAAGAAUUUC: 0.246 ratio

Set 3
Target: ABI1, truncated, D143A, DHFR fusion (Arabidopsis thaliana)
Method: DHFR PCA, deep sequencing
Medium: yeast
Setting: methotrexate growth selection, single substitutions
Together with: (+)-ABA 1.4 µM
Baseline: wild-type fitted maximum
Direction: higher = stronger binding
Measurement: relative binding score
Parent: PYL1, truncated, DHFR fusion (Arabidopsis thaliana); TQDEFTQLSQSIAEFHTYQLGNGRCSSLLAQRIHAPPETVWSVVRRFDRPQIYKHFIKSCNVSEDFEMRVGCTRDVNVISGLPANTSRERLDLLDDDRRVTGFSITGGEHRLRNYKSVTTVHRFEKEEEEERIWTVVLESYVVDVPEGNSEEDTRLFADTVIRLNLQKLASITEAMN; partner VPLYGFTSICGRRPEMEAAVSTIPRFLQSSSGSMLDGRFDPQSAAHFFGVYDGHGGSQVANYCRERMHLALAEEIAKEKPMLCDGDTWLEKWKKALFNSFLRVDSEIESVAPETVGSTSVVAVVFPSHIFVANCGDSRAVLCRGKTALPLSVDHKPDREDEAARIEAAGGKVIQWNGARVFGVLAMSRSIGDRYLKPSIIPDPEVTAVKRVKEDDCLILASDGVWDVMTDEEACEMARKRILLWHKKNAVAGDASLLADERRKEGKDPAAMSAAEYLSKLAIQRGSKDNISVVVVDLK
G107V: 1.84%
D95T: -1.19%
P146Q: 18.6%
S150K: 3.34%
E139F: -22%
E152T: 32.3%
L93M: 53.4%
N114D: 10.1%
W41N: -14.5%
R123G: 79.7%
V62I: 38.6%
V43C: 5.56%
W41I: -23.7%
T154G: -14.9%
I52E: 44.6%
T39H: 38.9%
A84H: 52.9%
Q31G: -3.65%

Set 4
Target: CCNB3, cyclin fold, Cln2 fusion (human)
Method: yeast growth competition, sequencing
Medium: yeast
Setting: weak parent motif
Baseline: not given
Direction: higher = stronger binding
Measurement: normalised enrichment score
Parent: PLK5 docking peptide (human); IFRKVGQRLLTQC
G6A: 0.227
I1A: 0.454
R3A: 0.0273
R8A: 0.521
Q12A: 0.343
F2A: 0.561
V5A: 0.279

Set 5
Target: Histone acetyltransferase KAT6A, winged helix 1, GST fusion (KAT6A, Homo sapiens, UniProt Q92794, residues 1-85)
Method: protein binding microarray
Form: double-stranded DNA, one strand shown
Medium: in vitro
Tested at: not given
Setting: 8-mer, flanks averaged, mean of 2 arrays, mostly near background
Baseline: not given
Direction: higher = stronger binding
Measurement: E-score
Target sequence (chain): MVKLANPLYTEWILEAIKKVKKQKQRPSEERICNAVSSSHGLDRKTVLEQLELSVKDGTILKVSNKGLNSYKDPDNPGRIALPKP
CCCAACGG: 0.0391
TAGTGGGA: -0.336
ATCTCGAC: -0.146
ACGCGCTA: 0.37
GGTCCGGA: 0.119
AGCTAGGA: -0.177
AAATAAAC: -0.0834
CTACGGGA: 0.316
TGGTTAAA: -0.103
GTAACAGA: -0.0224
CATTGAAA: -0.171
GCACGAAC: 0.0875
CAAGCTCA: -0.28
TAACCTTA: -0.165
CAGTGCGC: 0.334
CGTCTAAG: 0.0646
CGATCCAC: -0.111
ATAGCATA: -0.157
GTCTATAA: -0.134
GACTACCC: 0.0326
CTCAACAC: 0.0116
CCCTCGCG: 0.331

Set 6
Target: CREB5, bZIP domain (human)
Method: DHFR protein complementation
Medium: yeast
Setting: single substitutions, most at no-binding floor
Baseline: wild-type JUN-FOS pair
Direction: higher = stronger binding
Measurement: binding fitness
Parent: JUN, bZIP domain (human); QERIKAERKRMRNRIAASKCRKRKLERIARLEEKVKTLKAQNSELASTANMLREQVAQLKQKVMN; partner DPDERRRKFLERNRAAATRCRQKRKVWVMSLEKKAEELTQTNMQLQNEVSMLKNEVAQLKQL
M51C: -0.382 natural log
Q41A: -0.323 natural log
E33I: -0.629 natural log
T37A: -0.2 natural log
S47F: -0.359 natural log
A40E: -0.188 natural log
S43Y: -0.415 natural log
T37W: -0.286 natural log
R53D: -1.33 natural log
R53A: -0.936 natural log
Q55C: -0.576 natural log
Q41V: -0.502 natural log
K36G: -0.534 natural log
T48H: -0.412 natural log
L45Y: -1.23 natural log
T48Y: -0.311 natural log
Q58W: -0.318 natural log
V35K: -1.38 natural log
L59H: -1.26 natural log
T48R: -0.368 natural log
T37R: -0.24 natural log
A40M: -0.41 natural log
Q58C: -0.33 natural log
N42I: -1.26 natural log
V35A: -1.23 natural log

Excerpt of the above (set 3):
R123G: 79.7%
S150K: 3.34%
V43C: 5.56%
L93M: 53.4%
Q31G: -3.65%
I52E: 44.6%
A84H: 52.9%
T39H: 38.9%
